Experimental data from different studies.
Protocols differ between the studies behind these lines. “And” joins repeats or separate records; there may be more than shown.
Sequence of UniProt P10632 (whole entry, looked up): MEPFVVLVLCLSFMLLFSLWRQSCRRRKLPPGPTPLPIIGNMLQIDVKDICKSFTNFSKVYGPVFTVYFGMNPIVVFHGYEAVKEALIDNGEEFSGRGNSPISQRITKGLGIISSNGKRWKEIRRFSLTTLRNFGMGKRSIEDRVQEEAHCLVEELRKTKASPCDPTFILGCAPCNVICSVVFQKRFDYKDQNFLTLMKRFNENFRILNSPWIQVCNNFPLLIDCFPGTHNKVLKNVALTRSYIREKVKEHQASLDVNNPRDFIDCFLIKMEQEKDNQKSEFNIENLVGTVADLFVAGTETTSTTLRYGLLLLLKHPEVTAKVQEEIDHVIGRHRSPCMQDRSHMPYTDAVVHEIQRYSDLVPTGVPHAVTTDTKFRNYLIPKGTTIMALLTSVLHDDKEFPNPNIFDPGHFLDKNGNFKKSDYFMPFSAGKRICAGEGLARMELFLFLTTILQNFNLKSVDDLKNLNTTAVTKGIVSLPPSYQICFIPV

| Compound | tested on | assay | test system | conditions | scale | measurement | result |
| --- | --- | --- | --- | --- | --- | --- | --- |
| CNC(=O)C1CCCN(C(=O)C2CC3CCC2N3C(=O)[C@@H]2C[C@@H](O)CN2C(=O)NCc2cccc(Cl)c2F)C1 (mixture of isomers) | Cytochrome P450 2C8 (CYP2C8, Homo sapiens, UniProt P10632) | preincubation with NADPH | human | 1.85 µM | reference: negative control | remaining activity | 99.1% and 94.5% and 86.4% |
| C=C(NC(=O)c1csc(-c2nc3c(cc2O)-c2nc(cs2)C(=O)NC(C(C)O)C(=O)NC(=C(C)OC)c2nc(cs2)C(=O)NC2c4nc(cs4)C(=O)NC(COC(=O)c4c5c6c(cccc6n4O)COC(=O)C(OC4CC(C)(O)C(N(C)C)C(C)O4)C2OC5)c2nc-3cs2)n1)C(N)=O (centres unmarked) | – | – | male cynomolgus monkey, plasma | intravenous, 1 mg/kg, single dose, infusion | – | half-life | 6.8 h |
| CCN(CC)CC#CCNc1ccnc2cc(Cl)ccc12 | Salmonella typhimurium | mini-Ames test | TA1535 | 62.5 µg/well, without S9 | – | revertants per well | 3 |
| CC(C)OCCOCc1ccc(OCC(O)CN(N=O)C(C)C)cc1 (centres unmarked) | Salmonella typhimurium | Ames test | TA98 | 5000 µg/plate, 30 % rat S9 | reference: solvent control | revertant fold increase | 0.6 fold |
| N#C[C@@H]1CC(F)(F)CN1C(=O)CNC(=O)c1ccnc2c(NC(=O)[C@@H](N)CCCCNC(=O)CCOCCOCCOCCOCCOCCOCCNC(=O)CN3CCN(CC(=O)[O-])CCN(CC(=O)[O-])CCN(CC(=O)[O-])CC3)cccc12.[177Lu+3] | U-87 MG tumour model | – | host not given, liver | 24 h, tumour-bearing | – | tracer uptake | 0.23 %ID/g |
| CCc1c(-c2ccc3[nH]ncc3c2)cnc(N)c1-c1ccc(O)cc1 | CHP-212 resistant sublines (heterozygous USP7 V517F) | cell viability | – | 50 µM | – | viability | 6.98% and 9.96% |
| O=C1C2CC3CC1CC(C(=O)N1CCN(c4ccc([N+](=O)[O-])c5ncccc45)CC1)(C3)C2 | Salmonella typhimurium | Ames test | TA97a | 0.13 µg/well, with S9 | reference: vehicle | revertant fold increase | 0.9 |
| O=C(Nc1cnccc1-c1ccc([18F])cc1)c1ccnc(NC(=O)C2CC2)c1 | – | ex vivo biodistribution, gamma counting | GSK-3β overexpressing transgenic mouse, early stage, cecum | intravenous, 120 min post-injection, with: tariquidar 15 mg/kg iv, at least 120 min before tracer | – | mean SUV | 3.02 |

Excerpt of the above:
| Compound | tested on | assay | test system | conditions | scale | measurement | result |
| --- | --- | --- | --- | --- | --- | --- | --- |
| CCN(CC)CC#CCNc1ccnc2cc(Cl)ccc12 | Salmonella typhimurium | mini-Ames test | TA1535 | 62.5 µg/well, without S9 | – | revertants per well | 3 |
